Assay results collected from several papers.
Every numbered part comes from another study and shows a few of its results, in no order.
Sequence of UniProt Q9Y6M4 (whole entry, looked up): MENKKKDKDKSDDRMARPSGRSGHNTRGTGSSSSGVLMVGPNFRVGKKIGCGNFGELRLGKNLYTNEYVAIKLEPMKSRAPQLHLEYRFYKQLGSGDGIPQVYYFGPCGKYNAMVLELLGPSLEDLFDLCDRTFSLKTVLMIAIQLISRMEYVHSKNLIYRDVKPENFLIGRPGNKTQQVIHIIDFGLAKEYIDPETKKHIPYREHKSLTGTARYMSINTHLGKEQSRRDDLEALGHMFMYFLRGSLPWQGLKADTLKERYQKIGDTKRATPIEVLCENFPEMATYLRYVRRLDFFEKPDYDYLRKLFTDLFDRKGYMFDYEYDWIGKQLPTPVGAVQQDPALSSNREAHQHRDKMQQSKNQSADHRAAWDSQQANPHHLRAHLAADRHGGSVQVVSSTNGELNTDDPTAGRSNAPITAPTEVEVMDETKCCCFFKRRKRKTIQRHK
Sequence of UniProt Q15349 (whole entry, looked up): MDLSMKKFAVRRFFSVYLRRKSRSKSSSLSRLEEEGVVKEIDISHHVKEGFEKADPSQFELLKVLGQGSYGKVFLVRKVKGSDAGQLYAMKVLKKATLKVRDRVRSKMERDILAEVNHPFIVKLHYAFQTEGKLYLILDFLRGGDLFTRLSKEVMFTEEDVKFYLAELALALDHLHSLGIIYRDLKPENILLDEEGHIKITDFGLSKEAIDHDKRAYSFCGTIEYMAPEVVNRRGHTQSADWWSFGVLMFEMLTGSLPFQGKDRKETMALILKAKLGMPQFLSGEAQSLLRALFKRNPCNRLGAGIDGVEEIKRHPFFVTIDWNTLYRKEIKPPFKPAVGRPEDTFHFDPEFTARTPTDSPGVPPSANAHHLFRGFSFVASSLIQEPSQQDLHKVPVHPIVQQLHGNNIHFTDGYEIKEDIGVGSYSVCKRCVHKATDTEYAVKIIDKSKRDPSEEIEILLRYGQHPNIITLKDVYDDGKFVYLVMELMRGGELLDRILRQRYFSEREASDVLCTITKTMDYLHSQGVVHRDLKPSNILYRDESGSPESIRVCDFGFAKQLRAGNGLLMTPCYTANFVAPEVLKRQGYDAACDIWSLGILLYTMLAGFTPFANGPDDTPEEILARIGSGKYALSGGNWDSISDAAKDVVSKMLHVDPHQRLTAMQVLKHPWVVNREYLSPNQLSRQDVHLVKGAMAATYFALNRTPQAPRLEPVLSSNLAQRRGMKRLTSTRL
Sequence of UniProt P36896 (whole entry, looked up): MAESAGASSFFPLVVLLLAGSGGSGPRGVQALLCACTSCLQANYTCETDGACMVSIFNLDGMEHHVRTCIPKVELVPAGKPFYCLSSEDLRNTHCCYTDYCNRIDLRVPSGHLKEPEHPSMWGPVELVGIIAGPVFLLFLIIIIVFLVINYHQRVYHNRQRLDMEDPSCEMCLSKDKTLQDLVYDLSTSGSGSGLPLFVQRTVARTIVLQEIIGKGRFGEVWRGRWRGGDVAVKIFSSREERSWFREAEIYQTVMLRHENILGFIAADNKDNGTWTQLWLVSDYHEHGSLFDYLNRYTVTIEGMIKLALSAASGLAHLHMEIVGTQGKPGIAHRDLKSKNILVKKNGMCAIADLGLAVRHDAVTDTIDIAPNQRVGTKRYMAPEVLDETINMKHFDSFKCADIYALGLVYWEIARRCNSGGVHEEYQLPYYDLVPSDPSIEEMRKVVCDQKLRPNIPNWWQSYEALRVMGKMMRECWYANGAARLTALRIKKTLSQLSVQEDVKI
Sequence of UniProt Q15375 (whole entry, looked up): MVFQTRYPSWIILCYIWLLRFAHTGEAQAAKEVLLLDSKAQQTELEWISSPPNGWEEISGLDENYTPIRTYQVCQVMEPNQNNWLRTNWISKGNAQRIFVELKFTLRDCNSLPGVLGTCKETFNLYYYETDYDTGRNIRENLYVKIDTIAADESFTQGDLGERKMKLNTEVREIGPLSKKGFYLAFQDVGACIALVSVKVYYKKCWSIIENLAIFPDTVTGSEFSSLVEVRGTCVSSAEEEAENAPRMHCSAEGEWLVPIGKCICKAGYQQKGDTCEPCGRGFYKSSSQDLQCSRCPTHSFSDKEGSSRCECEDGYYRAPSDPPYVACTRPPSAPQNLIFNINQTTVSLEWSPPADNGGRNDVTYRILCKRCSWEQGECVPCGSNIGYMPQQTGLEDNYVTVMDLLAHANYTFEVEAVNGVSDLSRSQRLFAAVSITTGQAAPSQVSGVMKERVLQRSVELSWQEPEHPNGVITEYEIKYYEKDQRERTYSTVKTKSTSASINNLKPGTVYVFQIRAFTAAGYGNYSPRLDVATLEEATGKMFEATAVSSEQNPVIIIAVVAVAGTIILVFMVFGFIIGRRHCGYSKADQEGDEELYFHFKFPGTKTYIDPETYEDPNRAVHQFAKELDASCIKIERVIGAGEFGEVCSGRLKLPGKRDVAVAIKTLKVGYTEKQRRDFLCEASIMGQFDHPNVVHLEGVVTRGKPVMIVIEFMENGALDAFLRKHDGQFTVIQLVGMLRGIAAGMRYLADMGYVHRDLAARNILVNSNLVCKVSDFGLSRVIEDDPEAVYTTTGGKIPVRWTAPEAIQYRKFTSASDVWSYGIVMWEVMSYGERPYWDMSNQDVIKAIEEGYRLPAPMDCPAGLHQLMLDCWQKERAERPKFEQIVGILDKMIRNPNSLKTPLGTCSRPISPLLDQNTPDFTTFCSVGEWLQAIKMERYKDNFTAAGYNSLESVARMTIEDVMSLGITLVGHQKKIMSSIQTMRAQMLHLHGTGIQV
Sequence of UniProt P11362 (whole entry, looked up): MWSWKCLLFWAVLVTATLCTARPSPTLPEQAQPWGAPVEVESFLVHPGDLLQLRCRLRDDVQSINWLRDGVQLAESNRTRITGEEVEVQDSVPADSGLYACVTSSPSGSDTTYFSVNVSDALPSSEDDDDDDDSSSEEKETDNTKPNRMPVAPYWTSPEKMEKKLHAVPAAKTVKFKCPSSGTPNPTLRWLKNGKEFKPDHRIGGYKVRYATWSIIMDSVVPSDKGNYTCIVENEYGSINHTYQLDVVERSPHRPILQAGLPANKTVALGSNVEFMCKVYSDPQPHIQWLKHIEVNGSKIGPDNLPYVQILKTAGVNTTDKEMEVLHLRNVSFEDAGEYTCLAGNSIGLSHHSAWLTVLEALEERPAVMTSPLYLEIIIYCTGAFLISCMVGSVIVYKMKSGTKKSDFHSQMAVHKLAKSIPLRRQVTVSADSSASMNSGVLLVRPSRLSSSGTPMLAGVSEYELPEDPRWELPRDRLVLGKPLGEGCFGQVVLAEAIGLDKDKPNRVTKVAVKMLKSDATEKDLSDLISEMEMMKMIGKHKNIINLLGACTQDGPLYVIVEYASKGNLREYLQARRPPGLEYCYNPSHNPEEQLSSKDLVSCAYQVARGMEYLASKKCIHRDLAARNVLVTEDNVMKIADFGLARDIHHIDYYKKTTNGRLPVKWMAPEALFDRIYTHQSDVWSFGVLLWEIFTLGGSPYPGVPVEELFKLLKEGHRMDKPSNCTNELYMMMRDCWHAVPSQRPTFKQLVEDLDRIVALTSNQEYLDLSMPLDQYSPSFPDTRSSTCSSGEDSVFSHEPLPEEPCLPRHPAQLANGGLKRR
Sequence of UniProt P49137 (whole entry, looked up): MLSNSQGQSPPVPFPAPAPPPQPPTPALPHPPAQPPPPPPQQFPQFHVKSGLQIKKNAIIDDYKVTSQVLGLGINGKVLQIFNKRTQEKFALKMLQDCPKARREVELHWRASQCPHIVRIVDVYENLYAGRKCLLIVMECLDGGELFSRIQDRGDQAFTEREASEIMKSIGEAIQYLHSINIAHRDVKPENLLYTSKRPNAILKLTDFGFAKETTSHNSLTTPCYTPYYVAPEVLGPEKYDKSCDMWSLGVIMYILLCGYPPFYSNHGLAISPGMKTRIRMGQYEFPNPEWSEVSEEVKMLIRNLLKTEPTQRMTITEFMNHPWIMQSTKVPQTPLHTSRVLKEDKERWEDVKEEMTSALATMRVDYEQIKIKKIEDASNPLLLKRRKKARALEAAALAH

Sample 1 — technique: universal PBM; molecule type: double-stranded DNA, one strand shown; sample: in vitro; tested at: 600 nM; direction: higher = stronger binding
Target: Sal-like protein 4, full length isoform A (SALL4, Homo sapiens, UniProt Q9UJQ4, residues 1-1053)
Sequence of UniProt Q9UJQ4 (whole entry, looked up): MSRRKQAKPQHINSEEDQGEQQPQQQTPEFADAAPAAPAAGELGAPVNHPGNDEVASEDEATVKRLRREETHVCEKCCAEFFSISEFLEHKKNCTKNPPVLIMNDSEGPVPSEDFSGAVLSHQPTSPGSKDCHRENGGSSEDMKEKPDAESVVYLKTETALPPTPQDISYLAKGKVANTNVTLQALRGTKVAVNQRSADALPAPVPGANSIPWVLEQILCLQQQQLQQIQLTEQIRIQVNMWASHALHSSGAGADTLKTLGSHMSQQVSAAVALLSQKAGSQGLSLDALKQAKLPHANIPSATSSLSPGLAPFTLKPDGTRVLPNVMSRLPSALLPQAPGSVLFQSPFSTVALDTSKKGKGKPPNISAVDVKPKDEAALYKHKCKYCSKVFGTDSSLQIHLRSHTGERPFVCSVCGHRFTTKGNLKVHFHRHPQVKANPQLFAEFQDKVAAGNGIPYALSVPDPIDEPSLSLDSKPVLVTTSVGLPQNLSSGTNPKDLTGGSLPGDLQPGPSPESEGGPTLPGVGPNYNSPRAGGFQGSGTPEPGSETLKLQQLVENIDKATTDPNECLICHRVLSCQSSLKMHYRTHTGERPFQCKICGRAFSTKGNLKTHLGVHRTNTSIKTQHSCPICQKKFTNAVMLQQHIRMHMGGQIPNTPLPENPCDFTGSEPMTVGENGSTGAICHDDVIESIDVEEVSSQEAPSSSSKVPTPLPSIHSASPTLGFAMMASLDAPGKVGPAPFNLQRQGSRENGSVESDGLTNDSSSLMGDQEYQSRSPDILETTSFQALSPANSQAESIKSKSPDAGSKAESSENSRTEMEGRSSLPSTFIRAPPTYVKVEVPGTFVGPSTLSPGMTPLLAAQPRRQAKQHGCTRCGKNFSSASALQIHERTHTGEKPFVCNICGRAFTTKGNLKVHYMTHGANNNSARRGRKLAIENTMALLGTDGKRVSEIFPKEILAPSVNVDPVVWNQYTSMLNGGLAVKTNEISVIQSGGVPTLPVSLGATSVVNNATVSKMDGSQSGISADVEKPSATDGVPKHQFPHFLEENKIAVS
Setting: 8-mer, flanks averaged, mean of replicates
Sequence	E-score
CCGCAGAG	-0.347
AGCGAAAC	-0.0165
AATCGATG	0.197
CGCTTTCA	0.0747
AACCTGAT	0.131
CACGCCAA	-0.0998
GTGGAGCA	-0.072
AGCGTCGC	-0.243

Sample 2 — read-out: enzyme activity; action: inhibitor; tested at: 0.5 µM; baseline: control
SMILES: CC#CC(=O)Nc1cc2c(Nc3ccc(F)c(Cl)c3)ncnc2cn1
target	remaining activity [%]
Casein kinase I isoform gamma-2 (CSNK1G2, Homo sapiens, UniProt P78368)	94.9
Glycogen synthase kinase-3 beta (GSK3B, Homo sapiens, UniProt P49841)	93
Tyrosine-protein kinase Mer (MERTK, Homo sapiens, UniProt Q12866)	84.5
MAP kinase-activated protein kinase 2 (MAPKAPK2, Homo sapiens, UniProt P49137)	104
Mitogen-activated protein kinase kinase kinase 14 (MAP3K14, Homo sapiens, UniProt Q99558)	80.4
Angiopoietin-1 receptor (TEK, Homo sapiens, UniProt Q02763)	99.7
Rhodopsin kinase GRK7 (GRK7, Homo sapiens, UniProt Q8WTQ7)	106
Ribosomal protein S6 kinase alpha-2 (RPS6KA2, Homo sapiens, UniProt Q15349)	105
Casein kinase I isoform gamma-3 (CSNK1G3, Homo sapiens, UniProt Q9Y6M4)	111
Serine/threonine-protein kinase TBK1 (TBK1, Homo sapiens, UniProt Q9UHD2)	105
Fibroblast growth factor receptor 1 (FGFR1, Homo sapiens, UniProt P11362)	91.1
Activin receptor type-1B (ACVR1B, Homo sapiens, UniProt P36896)	104
Wee1-like protein kinase (WEE1, Homo sapiens, UniProt P30291)	93.2

Sample 3 — read-out: cell-free assay; technique: competition with immobilised ligand; tested at: 1 µM
Structure (SMILES): CCC(=O)N[C@H]1CC[C@@H](C(=O)N(C)c2ccc(-c3nc4ccccc4o3)cc2)C1
target	remaining binding
Phosphatidylinositol 3-kinase catalytic subunit type 3 (PIK3C3, Homo sapiens, UniProt Q8NEB9)	89%
Dual specificity protein kinase CLK3 (CLK3, Homo sapiens, UniProt P49761)	91%
Serine/threonine-protein kinase Sgk3 (SGK3, Homo sapiens, UniProt Q96BR1)	66%
Receptor tyrosine-protein kinase erbB-3 (ERBB3, Homo sapiens, UniProt P21860)	100%
5'-AMP-activated protein kinase catalytic subunit alpha-2 (PRKAA2, Homo sapiens, UniProt P54646)	88%
Serine/threonine-protein kinase BRSK2 (BRSK2, Homo sapiens, UniProt Q8IWQ3)	97%
Casein kinase I isoform gamma-3 (CSNK1G3, Homo sapiens, UniProt Q9Y6M4)	99%
Ephrin type-A receptor 7 (EPHA7, Homo sapiens, UniProt Q15375)	97%
Macrophage-stimulating protein receptor (MST1R, Homo sapiens, UniProt Q04912)	87%
Rho-associated protein kinase 2 (ROCK2, Homo sapiens, UniProt O75116)	100%
Serine/threonine-protein kinase NLK (NLK, Homo sapiens, UniProt Q9UBE8)	87%
Cyclin-dependent kinase 11B (CDK11B, Homo sapiens, UniProt P21127)	99%
cGMP-dependent protein kinase 1 (PRKG1, Homo sapiens, UniProt Q13976)	100%
Serine/threonine-protein kinase B-raf (BRAF, Homo sapiens, UniProt P15056)	100%

Sample 4 — technique: aptamer microarray, sandwich; molecule type: DNA with 2'F-ANA; sample: in vitro; tested at: 200 nM; together with: Cy3 exosite-II aptamer, 400 nM; direction: higher = stronger binding; sequence: GGTTGGTGTGGTTGG
Target: Prothrombin, mature alpha-thrombin (F2, Homo sapiens, UniProt P00734)
Setting: whole 15-mer aptamer, many near background
Modification	mean fluorescence intensity [a.u.]
2'F-ANA at 1 2 6 7 11 12 13 14	60.2
2'F-ANA at 1 7 8 9 10	59.1
2'F-ANA at 2 3 6 8 11 12 14 15	355
2'F-ANA at 1 3 7 8 9 10 11 15	92.5
2'F-ANA at 1 2 5 8 9 10 12 13 14	56.7
2'F-ANA at 5 7 12 15	167
2'F-ANA at 2 5 6 7 11 13 14	44.4
2'F-ANA at 2 4 7 9 10 11 13	93.6

Repeated from above (sample 3):
target	remaining binding
cGMP-dependent protein kinase 1 (PRKG1, Homo sapiens, UniProt Q13976)	100%
Casein kinase I isoform gamma-3 (CSNK1G3, Homo sapiens, UniProt Q9Y6M4)	99%
Dual specificity protein kinase CLK3 (CLK3, Homo sapiens, UniProt P49761)	91%
